# Measurements collected from several papers.
# Parts stem from different laboratories: compare values within a part only.

# Set 1
# Target: Prothrombin, mature alpha-thrombin (F2, Homo sapiens, UniProt P00734)
# Method: aptamer microarray, sandwich
# Form: DNA with 2'F-ANA
# Sample: in vitro
# Concentration: 200 nM
# Notes: whole 15-mer aptamer, many near background
# Added: Cy3 exosite-II aptamer, 400 nM
# Reading: higher = stronger binding
# Sequence: GGTTGGTGTGGTTGG
Modification,mean fluorescence intensity [a.u.]
2'F-ANA at 1 3 4 5 6 7 8 9 10 13 14,59.3
2'F-ANA at 8 12 13,797
2'F-ANA at 2 12 14,202
2'F-ANA at 5 6 8 11 12 13 15,94.3
2'F-ANA at 1 2 3 5 8 10,74.3
2'F-ANA at 1 7 8 15,294
2'F-ANA at 1 3 4 5 7 9 10 11 13 14 15,83.7

# Set 2
# Target: Histone acetyltransferase KAT6A, winged helix 2, GST fusion (KAT6A, Homo sapiens, UniProt Q92794, residues 85-181)
# Method: protein binding microarray
# Form: double-stranded DNA, one strand shown
# Sample: in vitro
# Concentration: not given
# Notes: 8-mer, flanks averaged, mean of 2 arrays, mostly near background
# Relative to: not given
# Reading: higher = stronger binding
# Residues (chain): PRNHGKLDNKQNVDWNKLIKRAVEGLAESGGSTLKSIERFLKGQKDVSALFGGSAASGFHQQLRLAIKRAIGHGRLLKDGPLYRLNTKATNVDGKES
Sequence,E-score
AGCCAAAT,-0.135
CGGCACCA,0.0836
GACGGAAA,-0.0601
GATTCCTA,-0.0659
GGGGTACC,0.0164

# Set 3
# Target: Sal-like protein 4, full length isoform A (SALL4, Homo sapiens, UniProt Q9UJQ4, residues 1-1053)
# Chain of UniProt Q9UJQ4 (whole entry, looked up): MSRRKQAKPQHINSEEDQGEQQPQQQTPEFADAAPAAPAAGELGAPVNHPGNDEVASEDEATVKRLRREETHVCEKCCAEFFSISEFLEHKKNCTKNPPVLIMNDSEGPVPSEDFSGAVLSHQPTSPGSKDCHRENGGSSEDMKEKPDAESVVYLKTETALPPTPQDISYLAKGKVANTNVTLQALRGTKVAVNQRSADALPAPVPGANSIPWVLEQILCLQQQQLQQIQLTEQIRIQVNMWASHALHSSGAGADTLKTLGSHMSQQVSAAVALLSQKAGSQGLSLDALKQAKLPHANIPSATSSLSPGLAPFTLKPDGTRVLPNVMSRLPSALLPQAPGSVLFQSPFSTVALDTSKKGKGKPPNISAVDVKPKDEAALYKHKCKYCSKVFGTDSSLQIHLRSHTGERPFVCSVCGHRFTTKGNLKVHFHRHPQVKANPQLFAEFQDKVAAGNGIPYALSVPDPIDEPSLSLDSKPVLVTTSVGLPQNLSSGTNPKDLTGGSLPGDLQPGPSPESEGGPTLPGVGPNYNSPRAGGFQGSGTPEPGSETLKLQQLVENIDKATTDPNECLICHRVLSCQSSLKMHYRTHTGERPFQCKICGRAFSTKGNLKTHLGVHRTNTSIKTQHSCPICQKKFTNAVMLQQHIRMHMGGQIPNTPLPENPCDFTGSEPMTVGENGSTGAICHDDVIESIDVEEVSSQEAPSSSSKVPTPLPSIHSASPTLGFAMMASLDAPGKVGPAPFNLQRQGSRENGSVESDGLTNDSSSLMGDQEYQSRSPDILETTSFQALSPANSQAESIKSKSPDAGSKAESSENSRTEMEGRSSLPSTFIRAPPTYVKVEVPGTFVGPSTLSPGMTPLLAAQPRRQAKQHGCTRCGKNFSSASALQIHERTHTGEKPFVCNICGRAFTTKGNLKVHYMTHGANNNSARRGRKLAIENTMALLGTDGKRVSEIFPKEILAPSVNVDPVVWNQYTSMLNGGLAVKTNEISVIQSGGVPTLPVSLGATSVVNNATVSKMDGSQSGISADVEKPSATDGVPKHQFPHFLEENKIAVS
# Method: universal PBM
# Form: double-stranded DNA, one strand shown
# Sample: in vitro
# Concentration: 600 nM
# Notes: 8-mer, flanks averaged, mean of replicates
# Reading: higher = stronger binding
Sequence,E-score
ATCACACC,-0.081
GTTGCAAC,-0.069
ACAAATCT,0.21
GAGTTGTA,0.155
AACAGACA,0.0579

# Other studies, line by line
Substance,target,assay,test system,setting,how to read,measurement,value
"PhoQ, residues 284 288 289 292 302 303 SLANIV","PhoP, residues 12 14 15 18 19 AGCRL (Escherichia coli, UniProt P23836)","Sort-seq, refers to: YFP reporter",E. coli,"PhoQ-PhoP variant library, added: 10 µM Mg2+","relative to: high Mg2+ state, higher = stronger signaling",fold induction,7.5
